# Measurements collected from several papers.
# Compare with care: the assays were run in different laboratories.
# Sample: plasma
Structure (SMILES),test,system,setting,how to read,endpoint,result
N#CCNC(=O)c1ccc(-c2ccnc(Nc3ccc(N4CCOCC4)cc3)n2)cc1,,healthy volunteers,"oral, dose not given, with: rifampin multiple-dose",baseline: with single-dose rifampin,Cmax decrease,29%
CNC(=O)c1cc(Oc2ccc(NC(=O)Nc3ccc(Cl)c(C(F)(F)F)c3)cc2)ccn1,,patients,"oral, with: rifampin",baseline: with over without rifampin,Cmax ratio,1.25
N#CCNC(=O)c1ccc(-c2ccnc(Nc3ccc(N4CCOCC4=O)cc3)n2)cc1,,healthy volunteers,"dose not given, with: ritonavir multiple-dose",baseline: with ritonavir over alone,Cmax geometric mean ratio,130%
COC(=O)c1ccc2c(c1)NC(=O)/C2=C(\Nc1ccc(N(C)C(=O)CN2CCN(C)CC2)cc1)c1ccccc1,,healthy volunteers,"oral, 150 mg, with: pirfenidone",,Cmax geometric LS mean,30.4 ng/mL
O=C(c1cccnc1-c1ccncc1)N1CCC(O)(Cc2ccccc2)CC1,,healthy Japanese adults,"oral, 200 mg single dose, geometric mean, PK/QTc set",,Cmax,413 ng/mL
CC[C@H](C)CCCCC(=O)N[C@@H](CCN)C(=O)N[C@H](C(=O)N[C@@H](CCN)C(=O)N[C@H]1CCNC(=O)[C@H]([C@@H](C)O)NC(=O)[C@H](CCN)NC(=O)[C@H](CCN)NC(=O)[C@H](CC(C)C)NC(=O)[C@@H](Cc2ccccc2)NC(=O)[C@H](CCN)NC1=O)[C@@H](C)O,,long-term haemodialysis patients,"IV, 0.75 mg/kg",baseline: healthy subjects,Cmax reduction,29%
COc1ccc([C@@H](O)c2cc(-c3ncnc4cc(N5CCOCC5)ccc34)c(F)cc2Cl)nn1,mixed model,healthy volunteers,"oral, 100 mg, high-fat fed tablet test arm",,Cmax geometric LS mean,286 ng/mL
NC(=O)c1[nH]cnc1N,,leiomyosarcoma patients,"intravenous, dose not given, cycle 2 day 1, with: dacarbazine co-administered",baseline: cycle 1 day 1,Cmax reduction,77.4%
CCCCCCCOc1ccc(CCC(N)(CO)CO)cc1C(F)(F)F.Cl,,healthy men,"oral, 0.75 mg, day 21",,Cmax,4.68 ng/mL
N[C@@H]1c2ccccc2OC12CCN(c1cnc3c(N4CCCc5ncccc54)n[nH]c3n1)CC2,,advanced metastatic solid tumour patients,"oral, 50 mg once daily, cycle 1 day 15, geometric mean",,Cmax,635 ng/mL
